Published values gathered from unrelated publications.
Each numbered part is a random draw from the data of one study; scales do not carry over between parts. Substitutions count along the parent as printed.
Chain of UniProt P08588 (whole entry, looked up): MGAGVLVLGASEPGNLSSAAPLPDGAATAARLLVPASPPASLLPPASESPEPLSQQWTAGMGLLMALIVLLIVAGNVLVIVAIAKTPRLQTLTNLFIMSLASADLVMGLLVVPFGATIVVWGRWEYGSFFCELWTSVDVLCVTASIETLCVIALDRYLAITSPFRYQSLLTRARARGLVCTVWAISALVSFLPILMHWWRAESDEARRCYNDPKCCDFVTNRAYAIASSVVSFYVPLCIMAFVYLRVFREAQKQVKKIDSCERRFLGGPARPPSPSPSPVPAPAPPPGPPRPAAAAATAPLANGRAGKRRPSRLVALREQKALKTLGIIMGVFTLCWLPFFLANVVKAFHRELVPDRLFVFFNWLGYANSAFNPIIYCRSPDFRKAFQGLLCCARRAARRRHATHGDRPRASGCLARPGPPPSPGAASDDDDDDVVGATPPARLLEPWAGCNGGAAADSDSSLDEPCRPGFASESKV

Sample 1 — technique: RNA Bind-n-Seq; molecule type: RNA; sample: in vitro; concentration: 200 nM; setting: whole 134-nt RNA, ends assumed; together with: 150 mM LiCl; reference: input library; reading: higher = stronger binding; all molecules: 7-deaza-guanosine replaces G
Target: Fragile X messenger ribonucleoprotein 1, C-terminal low-complexity region (Fmr1, Mus musculus, UniProt P35922)
Shared flanks, not repeated: GGGAGUUCUACAGUCCGACGAUC … UGGAAUUCUCGGGUGUCAAGG
| Strand | log2 enrichment |
| --- | --- |
| ACCAUGCAGGUGGGCAUCUUUGGGAAGUGGGGCAAGGGGGGGAUAGGGAGGGGGGUAACACUUUGGAAACAGGUGGUCCCAGGUCGUUUC | 1.38 |
| UGCUCUUCACCAAGGAGGACGAGCCUGGCCGCUGCGACGUCCUGAGGAACCCCCUCUACCUCCAGAGUGUGAAGCUGCAGGAAGGUAAGC | -0.0882 |
| CUCAAGUCCUGUGCUACACAUCGUAUGUACCGAAUCGGGGUUGGUUGGGUUGGGAAAGUAUUAUGUUACGCCGUUCGGAUCUGCACUUCC | -0.676 |
| CCUCAAGUCCUGUGCUACACAUCGUAUGUACCGAAUCGGAGGAGGAAAAAGGAAAGUAUUAUGUUACGCCGUUCGGAUCUGCACUUCCAG | -0.805 |
| AGUCCUGUGCUACACAUCGUAUGUACCGAAUCGGGGCCCCGGGCCCCGGGGCCCCGGGAAAGUAUUAUGUUACGCCGUUCGGAUCUGCAC | 0.455 |
| AAGUCCUGUGCUACACAUCGUAUGUACCGAAUCGGCCCCGGCCCCGGGGCCCCGGGAAAGUAUUAUGUUACGCCGUUCGGAUCUGCACUU | -3.32 |
| ACCAUGCAGGUGGGCAUCUUUGGGAAGUGGGGCAAGGGGGGGAUAGGGAGGGGUGUAACACUUUGGGAACAGGUGGUCCCAGGUCGUUUC | 1.07 |
| GCAGGAAGUAAAAACAAAUGGAAAUGCUUCGGAUAGUGGCAGGGGUGGGGGUUGCUAAGGAAAGGUUGGGAUGGGAGUGGGUAAAGAGUU | 1.26 |

Sample 2 — target: inorganic phosphate, free oxyanion; technique: microfluidic competitive inhibition; sample: in vitro, cell-free expressed; concentration: not given; reading: lower = stronger binding
Setting: derived from inhibition constants, unchanged parent 615000 nM
Starting sequence: PafA, mature enzyme, eGFP fusion (Elizabethkingia meningoseptica, UniProt Q9KJX5); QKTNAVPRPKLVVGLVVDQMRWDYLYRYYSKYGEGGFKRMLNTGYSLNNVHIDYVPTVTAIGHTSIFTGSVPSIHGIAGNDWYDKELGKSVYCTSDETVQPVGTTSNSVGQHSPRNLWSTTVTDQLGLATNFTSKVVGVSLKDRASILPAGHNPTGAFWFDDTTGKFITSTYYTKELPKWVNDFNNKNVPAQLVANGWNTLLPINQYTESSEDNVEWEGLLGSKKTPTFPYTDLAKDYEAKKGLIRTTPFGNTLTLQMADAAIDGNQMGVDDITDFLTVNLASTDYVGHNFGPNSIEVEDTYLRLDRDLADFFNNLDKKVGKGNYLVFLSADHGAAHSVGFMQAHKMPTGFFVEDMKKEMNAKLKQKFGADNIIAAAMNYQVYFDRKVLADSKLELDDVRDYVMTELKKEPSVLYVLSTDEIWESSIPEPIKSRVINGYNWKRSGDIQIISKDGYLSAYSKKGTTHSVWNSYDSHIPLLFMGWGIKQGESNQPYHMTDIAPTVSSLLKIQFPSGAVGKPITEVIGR
| Substitution | phosphate dissociation constant |
| --- | --- |
| I74V | 591 µM |
| S108V | 704 µM |
| K408V | 564 µM |
| E86G | 537 µM |
| L244V | 693 µM |
| N314G | 524 µM |
| A336V | 462 µM |
| T253G | 526 µM |
| Q100G | 564 µM |
| N266G | 596 µM |
| N372V | 629 µM |
| K179V | 650 µM |
| Q257G | 607 µM |
| K179G | 581 µM |
| Q448V | 784 µM |
| S73V | 347 µM |
| L202G | 513 µM |
| S65V | 437 µM |
| W483G | 602 µM |
| Y286G | 143 µM |
| I147V | 728 µM |
| I509G | 380 µM |
| Q100V | 682 µM |
| G127A | 510 µM |
| Y459V | 642 µM |

Sample 3 — technique: protein-binding microarray; molecule type: double-stranded DNA, one strand shown; sample: in vitro; concentration: 2540 nM top; setting: 60-bp whole probe; together with: salmon DNA 0.4 mg/ml; reference: random background probes; reading: higher = stronger binding; shared flanks, not repeated: GCCTAGCAC … GTCTTGATTCGCTTGACGCTGCTG
Target: Interferon regulatory factor 3, full length, phosphomimetic (IRF3, Homo sapiens, UniProt Q14653, residues 1-427, S386D/S396D/S398D/S402D/T404D/S405D)
Chain of UniProt Q14653 (whole entry, unmodified, looked up): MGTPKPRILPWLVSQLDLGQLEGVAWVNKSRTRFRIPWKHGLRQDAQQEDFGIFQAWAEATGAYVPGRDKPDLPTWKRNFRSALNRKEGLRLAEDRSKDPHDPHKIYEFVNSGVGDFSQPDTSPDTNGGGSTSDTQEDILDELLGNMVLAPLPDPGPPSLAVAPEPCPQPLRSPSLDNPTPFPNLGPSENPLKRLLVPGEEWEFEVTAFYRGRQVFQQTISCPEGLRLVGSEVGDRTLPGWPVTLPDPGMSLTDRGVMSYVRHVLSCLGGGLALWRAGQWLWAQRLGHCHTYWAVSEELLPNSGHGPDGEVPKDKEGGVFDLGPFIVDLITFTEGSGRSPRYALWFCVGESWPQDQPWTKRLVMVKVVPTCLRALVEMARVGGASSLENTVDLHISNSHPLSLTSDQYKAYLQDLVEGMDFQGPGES
| Strand | fitted relative affinity [z-score] |
| --- | --- |
| TTTGAACTGGGGACTGGATTAGTGCTA | -0.566 |
| GACGAACTGGAGTATCGAGACGTGCTA | -0.217 |
| ATATATATATTGTTAGTGTAGTGCTAG | 0.589 |
| TTAGGTTTCGTCTTTCGGTTAGTGCTA | 3.85 |
| GACGATTTCAGTATAGAGACGTGCTAG | 1.8 |
| TTAGATATCACTATCGATTAGTGCTAG | 1.41 |
| GACGATATCGGGACTGGAGAGGTGCTA | 0.124 |
| GACGGTATCCGTATCGGGACGTGCTAG | 4.34 |

Sample 4 — technique: RNA Bind-n-Seq; molecule type: RNA; sample: in vitro; concentration: 365 nM; reference: no-protein control; reading: higher = stronger binding
Target: RNA binding protein fox-1 homolog 2, RRM domain, GST-SBP tag (RBFOX2, Homo sapiens, UniProt O43251-10, residues 100-194)
Setting: natural RNA segment, single round, ends assumed
Shared flanks, not repeated: GGGAGUUCUACAGUCCGACGAUC … UGGAAUUCUCGGGUGCCAA
Residues (chain): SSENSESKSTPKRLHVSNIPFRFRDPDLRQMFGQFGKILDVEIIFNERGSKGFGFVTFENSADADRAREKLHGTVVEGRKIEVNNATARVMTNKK
| Strand | RBNS enrichment (R) |
| --- | --- |
| UCAACAUAAACUUGUCUGACAGCAAAUAGUCAGAUGCUGCAGUGUUUGGAAAUGAUGUACAUCUUGACCAUUGCACUGUUGGAACUUAGUCCCUUCUGUUUUAAAGGAGG | 0.276 |
| CAUGCCCAGUGCAUGUUGGGUCCAUGCACAACUCCUGGACCCGAGCUUUCACCAAGCUCUGGCCUCCAGGGAGCUGUGUCUUUCUCUGUCCCAUUAAGAUUUGGGCACAG | 0.483 |
| UGCUGUCCUCAAAGUAUAUAAUGUUUCUCAUAUGUACCAAGACCAUUUUCACAAUAAACAGAUCUGUUCAUACAUUUUUGUUAUUUUAUAAAUAAAUUACUUAAUUUUAG | 0.554 |
| CCAGUGCCACAUGCAAAGAGUGUAUUUGGUCUAAACAGUUCUUUCCAAACAACCAAAUGGCUGGGCAGCUUGUUGUCACGGAUAAAUGAUAUAAAAUGUAACCACUGAAC | 0.569 |
| CUUCCAUGACUAAUUUCUAAUUGUAACUCAACACACAUUGAGGUAUGGGCCCUCCUCAGUGACUUUAACUAGCUCAGAAACGUACUCCCCCACCAACCCCACCUCACCGC | 0.796 |
| GGAGCAGAGGGCACCCCAGGCCCUUCUUGCUCCACAGUCCCCCGCCCGCAGCAUACUCCACUCAUAACCGUAUAUUACAAACUCAUUUUGGUUUCUGGCUUUUUGUUUUG | 0.499 |
| AGUGCUUGACCCAAGUCAGUCAUAUUUAUAAUAUGCCUGCUCUUUGUUUAAAAUUAAAUUUGGGCACAGGAAGCACACAGAGACAUUUAGGUUGUUUAAAAAGUCAGAAU | 0.395 |
| UAUCACACCUUUACAGAAUAACAUGAUGGCAAUAUACAUACGUGAUAUUGUUAGGUGGAAUAACUUAGAAUAAAAUGAGAAUUCUUGAGUUAUAUUUUGUACUAUGGUUU | 0.409 |

Other studies, line by line
| Molecule | tested on | assay | test system | setting | how to read | measurement | result |
| --- | --- | --- | --- | --- | --- | --- | --- |
| AAAVRKPIVLKR | Saccharomyces cerevisiae | peptide binding, yeast competitive growth sequencing | peptide, cyclin F-Cln2 fusion | concentration not given, tiling library, Cln2-subtracted | direction not given | binding score | -0.0959 |
| CCC(O)c1cc2n(n1)CCN(c1nc(-c3ccccc3)nc3c1CCC3)C2 (stereo not drawn) | Beta-1 adrenergic receptor (ADRB1, Homo sapiens, UniProt P08588) | agonist | – | – | – | EC50 | ≥ 100 µM |

A few entries again (sample 1):
| Strand | log2 enrichment |
| --- | --- |
| AAGUCCUGUGCUACACAUCGUAUGUACCGAAUCGGCCCCGGCCCCGGGGCCCCGGGAAAGUAUUAUGUUACGCCGUUCGGAUCUGCACUU | -3.32 |
| ACCAUGCAGGUGGGCAUCUUUGGGAAGUGGGGCAAGGGGGGGAUAGGGAGGGGUGUAACACUUUGGGAACAGGUGGUCCCAGGUCGUUUC | 1.07 |
| GCAGGAAGUAAAAACAAAUGGAAAUGCUUCGGAUAGUGGCAGGGGUGGGGGUUGCUAAGGAAAGGUUGGGAUGGGAGUGGGUAAAGAGUU | 1.26 |
